Measured values gathered from unrelated publications.
Each numbered part is a random draw from the data of one study; scales do not carry over between parts. Positions count from the first letter of the parent shown.

Block 1 — method: RNA Bind-n-Seq; form: RNA; sample: in vitro; concentration: 365 nM; reference: no-protein control; reading: higher = stronger binding
Target: RNA binding protein fox-1 homolog 2, RRM domain, GST-SBP tag (RBFOX2, Homo sapiens, UniProt O43251-10, residues 100-194)
Notes: natural RNA segment, single round, ends assumed
Residues (chain): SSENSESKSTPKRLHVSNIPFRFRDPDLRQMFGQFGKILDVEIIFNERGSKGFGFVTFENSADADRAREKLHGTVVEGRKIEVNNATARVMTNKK
Strand | RBNS enrichment (R)
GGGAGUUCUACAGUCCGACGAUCUGUCAUCGUCAGCGUGUCAUCUGGAUGUACGAAGGUAGUAAAAAAGGGUUUCAGAACAGAGCCACGGGACUGGUAGGAAGAGGAGAUCCACAAAUGCUGUAUACAGGCUGUGGAAUUCUCGGGUGCCAA | 0.621
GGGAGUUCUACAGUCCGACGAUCCGCCCUCAUCAGGCAGCCCCCAGCCCCCUGAGGCCCUGUCCAUCUUCUCCCCACCACCGCCCCGGUGUGCGUACCCAGGCGCACGUGCUGCAGCCCCCGGAGGCCCCGCUUGGAAUUCUCGGGUGCCAA | 0.695
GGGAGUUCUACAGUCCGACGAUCAUGUUUUCAGUUGGUUUGUAUUCUGUAGCUCAGUAGCUGCUAAUAAAGUUAAAGAUCCUGUGUCCUGCUUUCUCUACUGUUUGGUCAGAUGAUGAAGUAUAAAUCUGGAUUGGAAUUCUCGGGUGCCAA | 0.392
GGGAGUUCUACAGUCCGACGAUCAGGAAAUGGAAUUGGUCAGGAUAGAUGGUGUGAAACUGAUAAGAGGUUUUGGAUGUGAAAAAGAGUUUCCAAAAGAAUGGUGUCUGGGAGUUUGAAUGUGAUGAUUAAAAUGGAAUUCUCGGGUGCCAA | 11.3
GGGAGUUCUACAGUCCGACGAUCGGCCUCCCAAAGUGCUGGGAUUACAGGUGUGAGCCACUGUGCCCAGCCCAAACUUUUAAGAUGACCCAAAGUCGUGAGAAUAGGAAAAAGGAAUCUGAUUAACAUUUAUGUGGAAUUCUCGGGUGCCAA | 0.414
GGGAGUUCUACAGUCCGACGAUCUAGUUAUAAAAAAGACACUUCGAAUUAUUUGAGUUAUAAAUAGCUUUUGUGACAGGAGCAUACCCAGAAUAAAACACGCCUACCUGUUAACUCGUUCAAAUAAUGUGGUCUGGAAUUCUCGGGUGCCAA | 0.443
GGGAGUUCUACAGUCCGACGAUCUAUUGUCCUUAACUUUAAGAUGUCAUUUCCUGAGACAGACUGUAUGAAGCUAUUGUCAGCUUCUCUAUUUCAAAUGCAAUCAGCAUAUAUCUAUAUUGAUAUCAGAAAAUUGGAAUUCUCGGGUGCCAA | 0.342
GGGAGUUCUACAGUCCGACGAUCGCAUUUAGGCUUUGAUGAGAGGGCACAGUUUGAGUUAGGUUUACCUCCCCCUUUCUGUGCCUGGGAACUGUUUGGUCCAGCUUUAGAACUGUGGUUUUGACUUCCUUAUCUGGAAUUCUCGGGUGCCAA | 0.275
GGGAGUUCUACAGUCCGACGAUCAGCUAGAGCAAUCCAGGAGACUGUUUGGUAGAUGUUCACAACUUCACCAAACUUAAAUAGCAGGAGGAGACUGGCAGGUGAGUGUGUCCAAGAAAUCCACAUUUGUGCUGUGGAAUUCUCGGGUGCCAA | 0.447
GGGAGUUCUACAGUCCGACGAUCUAGAUGGUUUUGAAAAAUGAACUGAGCUGCCUUCCCCCGUCGCAUAACCAGUUCCAUCAUCCUGGUGGAACUUGAACAUUUAGAGUUUAUCUAGAGAGCUUGGUUAAUCUUGGAAUUCUCGGGUGCCAA | 0.431
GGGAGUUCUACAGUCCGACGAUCAGUGAUUUUCCAGAGUGCUCGAUACUGUUAAUUACAUCUCCAUUAGGGCUGAAAAGAAUGACCUACGUUUCUGUAUACAGCUGUGUUGCUUUUGAUGUUGUGUUACUGUAUGGAAUUCUCGGGUGCCAA | 3.21
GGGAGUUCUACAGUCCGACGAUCAAAAAUUAUUUUACCUACAGAGAGGUUGUAGUUUUGAGCACAUGUUAGUUCCUCCCUCUUCCCGAUGUUCAUCUUCUAAGUAAGGGACAGCAUGCUACAGGACAGACCUGUGGAAUUCUCGGGUGCCAA | 3.37

Block 2 — method: competition protein-binding microarray; form: double-stranded DNA, one strand shown; sample: in vitro; concentration: 2 µM; together with: Pho4 competitor, 0.05 µM; reading: higher = stronger binding
Target: Centromere-binding protein 1, full length, His-tagged (CBF1, Saccharomyces cerevisiae, UniProt P17106, residues 1-351)
Sequence of UniProt P17106 (whole entry, looked up): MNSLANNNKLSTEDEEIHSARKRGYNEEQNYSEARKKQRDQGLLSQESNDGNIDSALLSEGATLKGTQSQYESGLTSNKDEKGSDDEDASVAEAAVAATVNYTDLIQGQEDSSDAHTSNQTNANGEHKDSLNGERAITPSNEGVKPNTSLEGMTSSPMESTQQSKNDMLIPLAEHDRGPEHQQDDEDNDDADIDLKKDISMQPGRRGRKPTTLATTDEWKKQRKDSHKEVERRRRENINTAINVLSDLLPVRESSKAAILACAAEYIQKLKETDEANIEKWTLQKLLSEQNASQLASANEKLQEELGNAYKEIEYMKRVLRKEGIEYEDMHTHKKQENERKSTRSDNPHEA
Notes: whole 60-bp probe, lowest competitor level
Strand | fluorescence intensity [a.u.]
CTAACGAAGGTTTGAACAGTGGGTGACAAGCCAAGTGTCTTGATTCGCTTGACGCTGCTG | 65.7
CTAACGAAGGTTTGTGATGTGGGTGACAAGCCAAGTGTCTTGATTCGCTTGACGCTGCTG | 75.5
CTCCGGAAGAAAGAGCTCGTGGTGATACAATTTCTAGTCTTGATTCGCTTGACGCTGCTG | 98.2
CTTCTGTAAATTTGCTGTGTGGGTGGACGCGCCCCGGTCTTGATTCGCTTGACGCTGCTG | 90.3
GTTTCTTCCTCTGGATACGTGGGACAGCTTGATGCTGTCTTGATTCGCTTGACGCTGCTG | 69.1
GCGGGTATTCCCCCTGGTGTGATGAACATTGTATCCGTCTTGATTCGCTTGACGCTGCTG | 74.4
CGGGGTTAAGTTTGGAGTGTGGGTGGCTTGCAGCAGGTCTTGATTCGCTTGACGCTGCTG | 73
ACCGGCAAGCGTTGGCTCATGACAACTGCCACCTCCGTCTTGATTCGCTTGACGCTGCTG | 71.4
AAATTACTAAGTTGTTTCGTGGGTGACGCCGTATGAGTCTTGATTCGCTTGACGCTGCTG | 77.7
TGAGCCTTCCCGTCGCGCGTGATGGGGAGATACAGAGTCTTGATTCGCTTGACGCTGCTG | 108
CACTTTTCTGGGTCTCTCGTGGTAGTCTTCCTTGTTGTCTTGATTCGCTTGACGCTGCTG | 83
CTTTCCCGATCTTGGTTAGTGGGTGTAGCACATTTGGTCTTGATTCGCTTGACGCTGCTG | 91.6
GGCGTTACTGATTTATACGTGGGTATCTACGATGATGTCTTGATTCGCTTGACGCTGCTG | 79.8
AATGTTTCTTCCCAACAAATGCAAGAAGTCAGAAAGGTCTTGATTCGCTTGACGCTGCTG | 83.3
CTTCTGTAAATTTTTCACGTGGCTTGACGCGCCCCGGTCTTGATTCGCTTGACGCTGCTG | 614
AGTTACCCAGCCGCCCTCGTGCTTTGTAGTGCCATCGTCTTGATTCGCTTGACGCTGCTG | 91.1
GCTTCGATGTTTCCTCACGTTGTGATGTTACTTCAGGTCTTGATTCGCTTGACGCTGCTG | 127
GTTCAAGTCTCCTTCCACGGGAATGGTCGGGTAAATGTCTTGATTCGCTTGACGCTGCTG | 66.7
ACAGTCTTTCCGTTACACGCACACACTTGTTTATTAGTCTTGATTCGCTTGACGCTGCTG | 80.8
GTATTGGGGGCTCGGCACGGCGGCTTTAGAACGGCTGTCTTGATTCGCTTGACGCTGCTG | 86.6
GGCGCAACATTTAATTGCATGACAAATTCCACTGCTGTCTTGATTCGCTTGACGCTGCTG | 83.6
ATCTTTCCACCCTGGCACGTGTTTCTTGTACATTTGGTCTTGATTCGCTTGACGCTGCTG | 2310
CCCGGCCCCCCCAGCCACGTGAACCCCACAAAGTGCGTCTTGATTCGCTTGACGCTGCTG | 1680
CTAACGAAGGTTTGGGAAGTGGGTGACAAGCCAAGTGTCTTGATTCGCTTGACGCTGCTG | 67.4
CATAAGGACCCCCATATCGTGATGGTCATTGATGACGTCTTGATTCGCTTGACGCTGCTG | 103

Block 3 — method: aptamer microarray, sandwich; form: DNA with 2'F-ANA; sample: in vitro; concentration: 200 nM; together with: Cy3 exosite-II aptamer, 400 nM; reading: higher = stronger binding; strand: GGTTGGTGTGGTTGG
Target: Prothrombin, mature alpha-thrombin (F2, Homo sapiens, UniProt P00734)
Notes: whole 15-mer aptamer, many near background
Modification | mean fluorescence intensity [a.u.]
2'F-ANA at 2 3 4 6 7 8 10 11 12 15 | 350
2'F-ANA at 1 2 3 7 8 11 12 13 | 351
2'F-ANA at 2 4 5 6 7 10 12 15 | 59.1
2'F-ANA at 3 4 6 7 10 14 | 184
2'F-ANA at 4 5 6 11 13 14 | 48
2'F-ANA at 2 4 6 7 10 11 12 13 15 | 89.7
2'F-ANA at 1 2 3 4 5 7 11 12 13 14 15 | 49.5
2'F-ANA at 2 6 7 8 10 11 | 106
2'F-ANA at 1 2 4 5 7 8 10 11 12 14 15 | 48.6
2'F-ANA at 5 8 9 13 | 57.1
2'F-ANA at 9 12 13 | 767
2'F-ANA at 2 5 6 7 9 10 13 14 15 | 46.9
2'F-ANA at 1 3 4 5 6 8 13 | 49.3
2'F-ANA at 2 3 4 5 6 7 8 10 12 13 | 52
2'F-ANA at 6 9 10 11 | 137
2'F-ANA at 1 6 7 9 10 11 13 14 15 | 50.2
2'F-ANA at 2 3 6 7 8 9 10 12 14 15 | 261
2'F-ANA at 1 3 5 6 8 9 10 12 13 14 | 47.1
2'F-ANA at 3 4 7 8 10 11 12 13 14 15 | 176
2'F-ANA at 1 4 5 7 9 10 | 45.9
2'F-ANA at 3 5 6 7 8 11 12 14 | 62.1
2'F-ANA at 2 3 4 6 7 8 9 10 11 12 14 | 163
2'F-ANA at 3 4 6 10 12 | 257

Block 4 — method: DHFR PCA, dose-response; sample: yeast; notes: Hill fit, mean, not affinity; together with: (+)-ABA, dose series; reading: lower = more sensitive
Target: ABI1, truncated, D143A, DHFR fusion (Arabidopsis thaliana, UniProt P49597)
Starting sequence: PYL1, truncated, DHFR fusion (Arabidopsis thaliana, UniProt Q8VZS8); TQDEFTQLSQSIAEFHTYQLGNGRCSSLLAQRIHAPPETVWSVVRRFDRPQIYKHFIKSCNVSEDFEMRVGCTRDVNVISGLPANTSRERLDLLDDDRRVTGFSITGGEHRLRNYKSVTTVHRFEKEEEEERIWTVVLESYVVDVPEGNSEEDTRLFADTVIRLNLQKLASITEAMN
Substitution | ABA EC50 [µM]
T6H | 5.84
R45S | 20.8
L138I | 14
K116A | 9.59
L28F | 10.4
Q7N | 2.54
L8A | 34.4
T73N | 11.2
S80T | 11.7
S171Y | 3.3
E147F | 3.35
S26Y | 7.14
L20E | 1.62
I172S | 64.7
N114T | 247
Y53M | 105
C25T | 8.47
G108M | 598
S42K | 2.55
E64W | 5.55

Block 5 — target: CCNE1, cyclin fold, Cln2 fusion (human); method: yeast growth competition, sequencing; sample: yeast; notes: weak parent motif; reference: not given; reading: higher = stronger binding
Starting sequence: SAMHD1 docking peptide (human); ASKSRVQLFKDDP
Substitution | normalised enrichment score
K3E | 0.0974
R5C | 0.308
L8V | -0.0247
S2T | 0.0371
D11T | 0.349
F9D | -0.0374
L8G | 0.16
S4Y | 0.446
K10D | 0.0617
K3D | 0.0383
K10F | -0.25
V6E | -0.0973
Q7W | 0.563
D11R | 0.402
K10G | 0.121
S2V | 0.231
S2G | 0.00842
R5D | -0.0389
D11I | -0.093
